Assay results pooled from the literature.
Several values in a cell are separate wells, animals, samples, runs or records. ± marks the error that the study gave.

| Structure (SMILES) | tested on | assay | test system | setting | how to read | measurement | result |
| --- | --- | --- | --- | --- | --- | --- | --- |
| CCN(CC)CC(=O)Nc1cccc(-n2cc(-c3ccc4ccc(-c5cn(-c6cccc(NC(=O)CN(CC)CC)c6)nn5)cc4c3)nn2)c1 | RCC4 | PCR angiogenesis array, refers to: PLG | – | 5 x IC50, 6 h, normoxia | baseline: untreated | fold regulation | -1.39 |
| CCN(C(=O)c1cc(F)ccc1Oc1nncnc1N1CCC2(C1)CN([C@H](CCCN(C)CCOC)C(C)C)C2)C(C)C | L-363 | cell growth or viability | – | 7 days | – | GI50 | > 10000 nM |
| Cc1cc(C(C)(C)C)ccc1OCCOCCN(C)C | – | locomotor activity in dark | zebrafish larvae, 7 dpf | 10 µM, minute 3, dark phase | – | larval motion | 9.3 ± 1.1 pixels/frame |
| CNS(=O)(=O)Nc1nccc(Cc2c(C)c3ccc(Oc4ncccc4F)cc3oc2=O)c1F | SK-N-SH | cell viability, CellTiter-Glo | – | 7 days | – | IC50 | 6.16 nM |
| CN1CCCNC(=O)c2cccc(c2)C(=O)NCCCN(C)CCCNc2cccc3c2C(=O)c2cccc(c2C3=O)NCCC1 | SAS | RNA-Seq, refers to: KIF14 mRNA | – | 1 µM, 6 h | baseline: untreated cells | log2 fold change | -0.713 |
| Cn1ncc2cc(-c3cncc(Cl)c3N3CCC4(CCNC4=O)CC3)ccc21 | LS174T | gene expression, microarray, refers to: CBWD1 mRNA | – | concentration not given, 4 h | baseline: untreated cells | log2 fold change | 1.61 |
| C=CC(=O)Nc1cccc(Cn2ncc3cnc(Nc4cnn(CCOC)c4)nc32)c1 | FGR human | binding, KINOMEscan | – | 100 nM | lower = stronger binding | percent of control | 35% |
| Cc1cc(OCCOCCn2ccnc2)cc(C(C)C)c1 | – | – | zebrafish larvae, 7 dpf | 10 µM, minute 2 | – | larval motion | 7.8 ± 1.6 pixels/frame |
| CC(C)c1ccc(N(C)c2ccc3c(c2)OCC[C@H]3CNc2cnccc2C(=O)O)cc1 | NCI-H69 | cell viability, CellTiter-Glo | – | 7 days | – | IC50 | 7.09 nM |
| Nc1ncc(-c2cc(-c3cnn(CC(F)(F)F)c3)ncc2F)nc1C(=O)NC1CNCC(F)C1 (centres unmarked) | PIK3CB | KINOMEscan | – | 1 µM | baseline: DMSO control | remaining binding | 93% |
| Cc1ncsc1-c1ccc(C(C)NC(=O)C2CC(O)CN2C(=O)C(NC(=O)CCCCCCCCCCN2CCCC(Nc3ncc(Cl)c(Nc4ccccc4S(=O)(=O)C(C)C)n3)C2)C(C)(C)C)cc1 (centres unmarked) | 22Rv1 | RNA-seq, refers to: PIK3R1 mRNA | – | concentration not given | baseline: DMSO | log2 fold change | -1.14 |
| CN(C)C(=O)c1ccnc(N2Cc3cn(Cc4ccc(F)cc4F)nc3C2)n1 | – | – | mouse, hippocampal slice, Schaffer collaterals | dose not given, interstimulus interval 100 | baseline: second over first response | paired-pulse ratio | 2.28 and 1.51 and 1.36 and 1.55 and 1.46 and 1.63 and 1.75 and 1.57 |
| CN(C)CCOCCOc1ccc(Cl)c(Cl)c1 | – | locomotor activity in dark | zebrafish larvae, 7 dpf | 10 µM, minute 3, dark phase | – | larval motion | 0.5 ± 0.3 pixels/frame |
| COC1CN([C@H]2CC[C@H]([C@@]3(C)Oc4c(Cl)cc(C(=O)NCc5c(SC)cc(C)[nH]c5=O)c(C)c4O3)CC2)C1 | – | RNA-seq, refers to: IL18R1 mouse homolog | mouse, HT-1376 xenograft, whole blood | dose not given | baseline: vehicle | log2 fold change | 0.024 |
| Cc1ccc(NC(=O)CCN2CCCCCC2)cc1C | – | – | zebrafish larvae, 7 dpf | 10 µM, minute 4 | – | larval motion | 8.2 ± 1.4 pixels/frame |
| c1ccc(-c2n[nH]cc2-c2ccnc3ccccc23)nc1 | RAD53 (Candida albicans) | kinase binding, MIB/MS competition | Candida albicans lysate | 1 µM | baseline: DMSO | log2 fold change | 1.36 |
| Cc1cc(NC(=O)CCN2CCCCC2)ccc1Br | – | – | zebrafish larvae, 7 dpf | 10 µM, minute 6 | – | larval motion | 16.5 ± 1.6 pixels/frame |
| C=CC(=O)N1[C@@H](c2ccc3c(c2)OCO3)c2[nH]c3ccccc3c2C[C@H]1C(=O)N1CCN(C)CC1 | human cyclin E1 wild type-3xFLAG:CDK2 | co-IP with TMT proteomics, refers to: KPNA2 | – | concentration not given, P52292 | baseline: wild type DMSO | relative co-enrichment | 85% |
| COc1ccccc1C1CCN(CCC(=O)Nc2ccc(C)c(C)c2)CC1 | – | – | zebrafish larvae, 7 dpf | 10 µM, minute 6 | – | larval motion | 1.5 ± 0.9 pixels/frame |
| C=C(NC(=O)c1csc(-c2nc3c(cc2O)-c2nc(cs2)C(=O)NC(C(C)O)C(=O)NC(=C(C)OC)c2nc(cs2)C(=O)NC2c4nc(cs4)C(=O)NC(COC(=O)c4c5c6c(cccc6n4O)COC(=O)C(OC4CC(C)(O)C(N(C)C)C(C)O4)C2OC5)c2nc-3cs2)n1)C(N)=O (centres unmarked) | Streptococcus pneumoniae | – | -4, immunocompromised mice, lung infection, lung | 16 mg/kg/day once daily, 24 h post-dose | – | bacterial load | 6.46 log CFU/g |
